Assay results pooled from the literature.

| Structure (SMILES) | organism | observed | technique | strain | notes | MIC |
| --- | --- | --- | --- | --- | --- | --- |
| C[C@@H]1C(=O)O[C@@H](C)/C=C/C=C\[C@@H](C)[C@@H]2C=C[C@@H]3C[C@@]4(C)O[C@H]4[C@@H](C)[C@H]3[C@@H]2C(=O)C(Cl)(Cl)C1=O | Staphylococcus aureus |  |  | MSSA clinical isolate | resistant PEN/CLI/SXT/TET | 0.05 µg/mL |
| CC1(C)C(NC(=O)C(=NOC2(C(=O)O)CC2)c2csc(N)n2)C(=O)N1OS(=O)(=O)O (stereo not drawn) | Serratia marcescens |  | agar dilution | ATCC 21074, susceptible |  | 0.25 µg/mL |
| O=CCNCCOn1c(=O)n(OCCNCCO)c(=O)n(OCCNCCOn2c(=O)n(OCCNCCO)c(=O)n(OCCNCCO)c2=O)c1=O | Aspergillus fumigatus | microbial growth | broth dilution |  |  | 8 µg/mL |
| CC1(C)C(NC(=O)C(=NOC2(C(=O)O)CCC2)c2csc(N)n2)C(=O)N1OS(=O)(=O)O (stereo not drawn) | Serratia marcescens |  | agar dilution | ATCC 21074, susceptible |  | 0.25 µg/mL |
| N=C(N)NCCC[C@@H]1NC(=O)[C@H](CCCNC(=N)N)NC(=O)[C@@H](CCCNC(=N)N)NC(=O)[C@@H](CCCNC(=N)N)NC(=O)[C@@H](C(c2ccccc2)c2ccccc2)NC(=O)[C@@H](Cc2c[nH]c3ccccc23)NC(=O)[C@@H](C(c2ccccc2)c2ccccc2)NC1=O | Blastomyces dermatitidis |  |  | BD-2 |  | 2 µg/mL |
| Cc1c(CN(C)C(=O)/C=C/c2cnc3c(c2)CC(N)C(=O)N3)oc2ccccc12 (stereo not drawn) | Klebsiella pneumoniae |  | broth microdilution | S47889 |  | 8 µg/mL |
| CC1(C)[C@H](NC(=O)/C(=N\OCc2c(Cl)cccc2Cl)c2csc(N)n2)C(=O)N1OS(=O)(=O)O | Serratia marcescens |  | agar dilution | ATCC 21074, susceptible |  | 1 µg/mL |
| N=C(N)NCCC[C@@H]1NC(=O)[C@@H](CCCNC(=N)N)NC(=O)[C@H](CCCNC(=N)N)NC(=O)[C@@H](C(c2ccccc2)c2ccccc2)NC(=O)[C@@H](C(c2ccccc2)c2ccccc2)NC(=O)[C@@H](C(c2ccccc2)c2ccccc2)NC(=O)[C@@H](CCCNC(=N)N)NC1=O | Blastomyces dermatitidis |  |  | BD-3 |  | 2 µg/mL |
| CC1C=CC=CC(C)C2C=CC3CC(C)(O)C(Cl)C(C)C3C2C(=O)C(Cl)(Cl)C(=O)C(C)C(=O)O1 (stereo not drawn) | Staphylococcus aureus |  |  | MRSA clinical isolate | resistant: OXA,CLI,DOX,ERY,TET,TOB | 0.2 µg/mL |
| COC1C=COC2(C)Oc3c(C)c(O)c4c(c3C2=O)C2=NC3(CCN(CC(C)C)CC3)NC2=C(NC(=O)C(C)=CC=CC(C)C(O)C(C)C(O)C(C)C(OC(=O)Nc2cccnn2)C1C)C4=O (stereo not drawn) | Mycobacteroides abscessus | microbial growth | agar dilution | ATCC19977 |  | 0.48 µM |
| C=C(NC(=O)c1csc(-c2nc3c(cc2O)-c2nc(cs2)C(=O)NC(C(C)O)C(=O)NC(=C(C)OC)c2nc(cs2)C(=O)NC2c4nc(cs4)C(=O)NC(COC(=O)c4c5c6c(cccc6n4O)COC(=O)C(OC4CC(C)(O)C(N(C)C)C(C)O4)C2OC5)c2nc-3cs2)n1)C(N)=O (stereo not drawn) | Streptococcus pneumoniae | microbial growth |  | PRSP |  | 0.0039 µg/mL |
| CC1(C)[C@H](NC(=O)/C(=N\OCC(=O)N2CCC(C(=O)O)CC2)c2csc(N)n2)C(=O)N1OS(=O)(=O)O | Serratia marcescens |  | agar dilution | ATCC 21074, susceptible |  | 2 µg/mL |
| N=C(N)NCCC[C@@H]1NC(=O)[C@H](CCCNC(=N)N)NC(=O)[C@H](CCCNC(=N)N)NC(=O)[C@@H](CCCNC(=N)N)NC(=O)[C@H](Cc2ccc3ccccc3c2)NC(=O)[C@H](Cc2ccc3ccccc3c2)NC(=O)[C@H](Cc2ccc3ccccc3c2)NC1=O | Blastomyces dermatitidis |  |  | BD-2 |  | 2 µg/mL |
| C=CCO/N=C(\C(=O)N[C@@H]1C(=O)N(OS(=O)(=O)O)C1(C)C)c1nsc(N)n1 | Serratia marcescens |  | agar dilution | ATCC 21074, susceptible |  | 2 µg/mL |
| COc1ccc(NC(=O)COc2cccc(OCC(C)C)c2)cc1 | Clavispora lusitaniae | microbial growth | broth dilution | MY1396 |  | 4 µg/mL |

For quick reference, copied from above:
| Structure (SMILES) | organism | observed | technique | strain | notes | MIC |
| --- | --- | --- | --- | --- | --- | --- |
| CC1(C)C(NC(=O)C(=NOC2(C(=O)O)CCC2)c2csc(N)n2)C(=O)N1OS(=O)(=O)O (stereo not drawn) | Serratia marcescens |  | agar dilution | ATCC 21074, susceptible |  | 0.25 µg/mL |
